Assay results of several laboratories.
Each numbered part is a random draw from the data of one study; scales do not carry over between parts.

Block 1
Target: RNA binding protein fox-1 homolog 2, RRM domain, GST-SBP tag (RBFOX2, Homo sapiens, UniProt O43251-10, residues 100-194)
Technique: RNA Bind-n-Seq
Molecule type: RNA
Sample: in vitro
Tested at: 365 nM
Setting: natural RNA segment, single round, ends assumed
Baseline: no-protein control
Reading: higher = stronger binding
Residues (chain): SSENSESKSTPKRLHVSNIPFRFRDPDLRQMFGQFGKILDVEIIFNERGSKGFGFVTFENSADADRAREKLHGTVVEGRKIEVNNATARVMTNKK
`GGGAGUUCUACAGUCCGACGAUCGCUCCAGCAGGAACUACCUUUCUGAACCCGCGGAGACCCGCAUAAGCCUGACCCCUUGCUUCCUCCCCGCCCCCCAGUGCGUUCUGUGAUCGCCAAGUUCAAAGCUGUGCUGGAAUUCUCGGGUGCCAA`: “RBNS enrichment (R)” 0.778.
For `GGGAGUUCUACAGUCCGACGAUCCGAGCCCAGAGUGUUCAAAGGCGCCAAGGUCCUGGCAGGUUACAAAGGGUUUUGUGUUGGCAUGAGUUCUGGAACACAUCUCAGGCUGUCAGAGCAAAGUGAUCCAGAAUUGGAAUUCUCGGGUGCCAA`, “RBNS enrichment (R)” read 0.896.
`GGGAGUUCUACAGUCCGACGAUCGACUGGUCUCGAACUCCUGGCCUCAAGCCAUCUUCCCGCCUCAGCCUCUCAAAUAGCUGGGCUUACAGGCAUGAGCCACCACACCUGGCCAGGAUUUGGUUGUUUAAAUAUGGAAUUCUCGGGUGCCAA`: “RBNS enrichment (R)” 0.351.
`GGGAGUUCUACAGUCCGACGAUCAGAACAGGAACAGAACUGAGCAGGGGCAGGUCUCCAAGGCAAGCCCAGCUGGUGUGACUUAGACAAUGACGAGGCUUCAACUCACUGUCUUUUUUUUUUUUUUUUGGAGGUGGAAUUCUCGGGUGCCAA` — result for “RBNS enrichment (R)”: 0.371.
`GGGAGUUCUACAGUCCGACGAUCGUUCUUUCAAAGCCUUAGAGUGGCGCUACACCGGCCAGCUGGCUUAGCUGCAGGAAGGCCUCUUAGCCAGGCUAUUCCCAUUCCAUCCGCUCCCUUCUCCCCACCCAAACUGGAAUUCUCGGGUGCCAA`: “RBNS enrichment (R)” 0.597.
Under “RBNS enrichment (R)”, `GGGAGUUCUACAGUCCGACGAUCUGUUCAACUAUUUGCAAAGGUCAACCAAAUAGACCACAUGUUCGCAAAGUAUCAUCUGAGGAAAUUAAGUACCUUCUUAGCCCUCUCAGUCAUAAAUUUGAACAAAUUUUUGGAAUUCUCGGGUGCCAA` is recorded as 0.291.
Under “RBNS enrichment (R)”, `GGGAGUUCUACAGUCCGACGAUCCCAGCCUUGGUUUGGAGCUUGCAGACGUAACUGAAUAUAAUUUCCUCCAUUUGCAGCAUGGUUCCCAUGCCAUUGGCGCACCAGACAGAAAAGGGAGAGAGAAAAGACAGUGGAAUUCUCGGGUGCCAA` is recorded as 0.409.
`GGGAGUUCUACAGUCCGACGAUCCCAGGGCAGCCCCUGAGUCCACAUGCACACCUCAGCAGCCUAUAUUUAUUUGUUUCUGGUUUAGCCUCAAGGGCUGGAAGCUGGGCCUGUAUUGAAUAAACAGAAACCCAUGGAAUUCUCGGGUGCCAA`: “RBNS enrichment (R)” 0.886.

Block 2
Target: Histone acetyltransferase KAT6A, winged helix 1, GST fusion (KAT6A, Homo sapiens, UniProt Q92794, residues 1-85)
Technique: protein binding microarray
Molecule type: double-stranded DNA, one strand shown
Sample: in vitro
Tested at: not given
Setting: 8-mer, flanks averaged, mean of 2 arrays, mostly near background
Baseline: not given
Reading: higher = stronger binding
Construct (chain): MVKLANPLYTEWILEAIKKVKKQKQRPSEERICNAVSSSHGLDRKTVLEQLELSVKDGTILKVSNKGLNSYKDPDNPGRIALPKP
The E-score of `GACCAAAC` is reported as 0.0416.
The E-score of `AAGAGAAG` is reported as -0.169.
The E-score of `CAGCAGGG` is reported as -0.0137.
The E-score of `ATTTATGG` is reported as -0.13.
For `AATTCCGT`, the E-score was 0.0908.
With `TAAGAAAA` the E-score was -0.0787.
`ATGTAGCA` gave an E-score of -0.19.
With `AGACGAGA` the E-score was -0.102.
For `AGTTAAGG`, the E-score was -0.194.

Block 3
Target: Interferon regulatory factor 7, full length, phosphomimetic (IRF7, Homo sapiens, UniProt Q92985, residues 1-503, S101K/S471D/S472D/S475D/S476D/S477D/S483D/S484D/S487D)
Technique: protein-binding microarray
Molecule type: double-stranded DNA, one strand shown
Sample: in vitro
Tested at: 250 nM
Setting: 60-bp whole probe
With: salmon DNA 0.4 mg/ml
Baseline: random background probes
Reading: higher = stronger binding
Shared flanks, not repeated: GCCTAGCAC … GTCTTGATTCGCTTGACGCTGCTG
Residues (chain): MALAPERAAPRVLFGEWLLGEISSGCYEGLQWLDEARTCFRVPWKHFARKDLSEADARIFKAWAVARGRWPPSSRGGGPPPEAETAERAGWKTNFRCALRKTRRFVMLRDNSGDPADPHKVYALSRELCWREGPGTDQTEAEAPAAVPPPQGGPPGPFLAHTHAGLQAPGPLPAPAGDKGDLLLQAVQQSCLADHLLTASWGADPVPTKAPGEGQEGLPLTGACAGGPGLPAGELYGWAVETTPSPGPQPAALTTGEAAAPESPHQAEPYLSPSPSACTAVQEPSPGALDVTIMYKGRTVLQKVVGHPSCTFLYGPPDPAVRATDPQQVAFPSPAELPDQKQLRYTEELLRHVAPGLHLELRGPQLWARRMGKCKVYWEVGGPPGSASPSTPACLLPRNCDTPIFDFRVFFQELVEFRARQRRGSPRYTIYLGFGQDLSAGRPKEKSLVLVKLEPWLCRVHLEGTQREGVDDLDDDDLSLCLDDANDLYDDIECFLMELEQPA
`TTTGCTTTCATTTATTTACTGTGCTAG` has a log fluorescence of 0.734 z-score.
The log fluorescence of `TTAGGTTTCGGTTTTGGTTAGTGCTAG` is reported as 13.4 z-score.
`TTAGATTCCAGTTTCGAATAGTGCTAG` gave a log fluorescence of 6.65 z-score.
For `TCAAGTTTGACATCTTCAACTGTGCTA`, the log fluorescence was 0.0235 z-score.
`GACGGTATCGACTTTCCGGACGTGCTA` has a log fluorescence of 1.42 z-score.
`TTAGGTTTCGGTCTCAGTTAGTGCTAG` gave a log fluorescence of 8.07 z-score.
`GACGATTTCAGCTTCGAGACGTGCTAG` gave a log fluorescence of 0.299 z-score.
The log fluorescence of `GACGGACTTGGGACTGGGGACGTGCTA` is reported as -0.213 z-score.
`GACGGTCTCGGTCTCGGGCCGTGCTAG` has a log fluorescence of 0.346 z-score.
For `TCAACTTTCTATGTCTGACTGTGCTAG`, the log fluorescence was 0.451 z-score.

Further values, each from its own experiment
`PhoQ, residues 284 288 289 292 302 303 DDMDFR` has a fold induction of 0.545 (PhoP, residues 12 14 15 18 19 LHATL (Escherichia coli, UniProt P23836); Sort-seq, item: YFP reporter; E. coli; PhoQ-PhoP variant library, with: 10 µM Mg2+; baseline: high Mg2+ state, higher = stronger signaling).

Some of these lines once more (block 3):
`GACGATTTCAGCTTCGAGACGTGCTAG` gave a log fluorescence of 0.299 z-score.
The log fluorescence of `GACGGACTTGGGACTGGGGACGTGCTA` is reported as -0.213 z-score.
`GACGGTCTCGGTCTCGGGCCGTGCTAG` has a log fluorescence of 0.346 z-score.
For `TCAACTTTCTATGTCTGACTGTGCTAG`, the log fluorescence was 0.451 z-score.
